Experimental data gathered from unrelated publications.
Protocols differ between the studies behind these lines.
Cell line: Ramos

For `CN1CCC(N[C@H]2CCc3[nH]c4c(C(N)=O)ccc(-c5ccccc5Cl)c4c3C2)CC1`, the IC50 was 351 nM (cell growth or viability).
`C=CC(=O)N1CCC[C@@H](n2nc(-c3ccc(Oc4ccccc4)cc3)c3c(N)ncnc32)C1` has an IC50 of 1.72 nM (IP1 production, HTRF; 4 h, with: anti-IgM).
With `CC(C)=CC1OC(C)(C)C2C=C3C(=O)C(Cl)=CC(O)C3C3C(O)C4OC4C(=O)C132` (stereo not drawn) the IC50 was 2020 nM (cell growth or viability, MTS).
`C=CC(=O)N1CCC[C@@H](c2ccc(C(N)=O)c3[nH]ccc23)C1` has an IC50 of > 1000 nM (IP1 production, HTRF; 4 h, with: anti-IgM).
`CCN(C(=O)c1cc(F)ccc1Oc1nncnc1N1CCC2(C1)CN([C@H](CCCN(C)CCOC)C(C)C)C2)C(C)C` gave a GI50 of > 10 µM (cell growth or viability; 7 days).
`CCOc1cncc(-c2ccc(NC(=O)C3(c4ccnc(NS(=O)(=O)C5CC5)n4)CCOCC3)nc2)n1` has an IC50 of 28 nM (cell growth or viability, ATP luminescence; 72 h).
With `C[C@H]1CN(C2COC2)CCN1c1ccc(Nc2cc(-c3ccnc(N4CCn5c(cc6c5CC(C)(C)C6)C4=O)c3CO)cn(C)c2=O)nc1` the IC50 was 111 nM (IP1 production, HTRF; 4 h, with: anti-IgM).
The IC50 of `CNS(=O)(=O)Nc1nccc(Cc2c(C)c3ccc(Oc4ncccc4F)cc3oc2=O)c1F` is reported as > 1000 nM (cell viability; 7 days).
`NC(=O)c1ccc(-c2ccccc2Cl)c2c3c([nH]c12)CC[C@H](N)C3` has an IC50 of 20 nM (cell growth or viability).

For quick reference, copied from above:
With `C[C@H]1CN(C2COC2)CCN1c1ccc(Nc2cc(-c3ccnc(N4CCn5c(cc6c5CC(C)(C)C6)C4=O)c3CO)cn(C)c2=O)nc1` the IC50 was 111 nM (IP1 production, HTRF; 4 h, with: anti-IgM).
